Results of several laboratories.
Parts stem from different laboratories: compare values within a part only.

Series 1
Target: Sal-like protein 4, full length isoform A (SALL4, Homo sapiens, UniProt Q9UJQ4, residues 1-1053)
Chain of UniProt Q9UJQ4 (whole entry, looked up): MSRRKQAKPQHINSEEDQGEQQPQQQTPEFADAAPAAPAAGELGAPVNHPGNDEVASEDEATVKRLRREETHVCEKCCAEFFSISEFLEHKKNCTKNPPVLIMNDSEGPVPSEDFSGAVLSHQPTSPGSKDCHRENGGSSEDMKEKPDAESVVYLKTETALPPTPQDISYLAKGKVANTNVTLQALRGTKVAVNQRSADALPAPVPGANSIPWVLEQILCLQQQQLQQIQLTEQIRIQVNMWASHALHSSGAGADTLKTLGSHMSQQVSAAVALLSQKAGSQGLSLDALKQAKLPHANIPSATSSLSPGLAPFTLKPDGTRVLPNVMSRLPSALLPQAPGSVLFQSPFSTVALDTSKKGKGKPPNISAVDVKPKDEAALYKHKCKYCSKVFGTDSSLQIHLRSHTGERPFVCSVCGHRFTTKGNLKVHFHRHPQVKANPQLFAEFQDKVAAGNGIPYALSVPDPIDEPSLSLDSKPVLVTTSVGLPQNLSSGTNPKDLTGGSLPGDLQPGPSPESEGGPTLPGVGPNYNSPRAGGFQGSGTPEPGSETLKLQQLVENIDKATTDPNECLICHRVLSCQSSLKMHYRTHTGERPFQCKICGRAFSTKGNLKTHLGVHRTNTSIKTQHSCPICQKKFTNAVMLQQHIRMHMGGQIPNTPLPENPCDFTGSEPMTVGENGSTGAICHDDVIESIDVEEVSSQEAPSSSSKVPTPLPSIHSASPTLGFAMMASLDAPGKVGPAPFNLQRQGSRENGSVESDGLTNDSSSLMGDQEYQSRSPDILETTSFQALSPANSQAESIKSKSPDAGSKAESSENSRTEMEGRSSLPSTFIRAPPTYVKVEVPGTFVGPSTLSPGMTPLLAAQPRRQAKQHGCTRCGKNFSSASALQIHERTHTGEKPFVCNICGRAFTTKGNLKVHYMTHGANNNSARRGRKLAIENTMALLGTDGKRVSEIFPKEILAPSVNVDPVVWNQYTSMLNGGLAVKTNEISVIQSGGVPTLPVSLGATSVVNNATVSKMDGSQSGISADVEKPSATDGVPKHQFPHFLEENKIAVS
Technique: universal PBM
Molecule type: double-stranded DNA, one strand shown
Medium: in vitro
Concentration: 600 nM
Notes: 8-mer, flanks averaged, mean of replicates
Reading: higher = stronger binding
Endpoint: E-score
AAACGAGC: 0.0684
CGGCTCCA: -0.277
CTTCCCCC: -0.132
CCTTGGAA: 0.0143
AGCAAATA: 0.283
ATGTGGCG: -0.118
ATCTCAAT: 0.244
CCTTAGCA: -0.0486

Series 2
Cell line: HEK-293T/ACE2
Concentration: concentration not given
Time: 16 (unit not given)
Relative to: vehicle
Endpoint: viability
N#CC1(c2ccc(NC(=O)c3cccnc3NCc3ccncc3)cc2)CCCC1: 81.4%
CN(C)CCc1c[nH]c2ccc(Cn3cncn3)cc12: 99%
CNCC(O)c1ccc(OC(=O)C(C)(C)C)c(OC(=O)C(C)(C)C)c1 (stereo not drawn): 102%
C[C@]12CCC(=O)C=C1CC[C@@H]1[C@@H]2[C@@H](O)C[C@@]2(C)[C@H]1CC[C@]2(O)C(=O)CO: 104%

Series 3
Target: Replicase polyprotein 1ab, polymerase (rep, Severe acute respiratory syndrome coronavirus 2, UniProt P0DTD1)
Effect on: enzyme activity
Mode: inhibitor
Concentration: 20 µM
Endpoint: inhibition
CCOC(=O)CN1CCN(C(=O)/C=C/c2cc(OC)c(OC)c(OC)c2)CC1: -1.72%
Fc1ccc2nc(CCC#Cc3ccccn3)cn2c1: 2.81%
COc1cc2c(c(OC)c1OC)-c1c(cc3c(c1OC)OCO3)C[C@H](C)[C@H](C)C2: -8.28%
CO[C@H]1/C=C/O[C@@]2(C)Oc3c(C)c(O)c4c(O)c(c5c(nc6cc(C)ccn65)c4c3C2=O)NC(=O)/C(C)=C\C=C\[C@H](C)[C@H](O)[C@@H](C)[C@@H](O)[C@@H](C)[C@H](OC(C)=O)[C@@H]1C: 0.61%
CC(C)=CCc1c(O)cc(O)c2c(=O)c(O)c(-c3ccc(C(F)(F)F)cc3)oc12: -6.06%
N#CN=C(NCCCCCCOc1ccc(Cl)cc1)Nc1ccncc1: 1.53%
C=CC1=C(C(=O)O)N2C(=O)[C@@H](NC(=O)/C(=N\O)c3csc(N)n3)[C@H]2SC1: 2.04%
CC(CCc1ccccc1)NC(C)C(O)c1ccc(O)cc1 (stereo not drawn): 16.8%
Cc1c(-c2cnccn2)ssc1=S: -2.17%
O=C(CN1C(=O)C2(CCCC2)NC[C@H]1c1cc(F)cc(F)c1)Nc1ccc2c(c1)C[C@@]1(C2)C(=O)Nc2ncccc21: -1.34%
Oc1ccc2c3c1O[C@H]1c4oc5ccccc5c4C[C@@]4(O)[C@@H](C2)N(CC2CC2)CC[C@]314: 2.7%
C#C[C@]1(OC(C)=O)CC[C@H]2[C@@H]3CCC4=CC(=NO)CC[C@@H]4[C@H]3CC[C@@]21CC (mixture of isomers): -17.8%

Series 4
Target: Replicase polyprotein 1ab, main protease (rep, Severe acute respiratory syndrome coronavirus 2, UniProt P0DTD1)
Effect on: enzyme activity
Mode: inhibitor
Concentration: 20 µM
Notes: hit confirmation, no DTT
Endpoint: inhibition
O=C1OC2(c3ccccc31)c1cc(Br)c(O)c(Br)c1Oc1c2cc(Br)c(O)c1Br: 97.7%
O=C(O)c1ccc(SSc2ccc(C(=O)O)cn2)nc1: 98.9%
CN1CC[C@@]2(C)c3cc(O)ccc3N(C)[C@@H]12: 75.5%

Repeated from above (series 3):
O=C(CN1C(=O)C2(CCCC2)NC[C@H]1c1cc(F)cc(F)c1)Nc1ccc2c(c1)C[C@@]1(C2)C(=O)Nc2ncccc21: -1.34%
Oc1ccc2c3c1O[C@H]1c4oc5ccccc5c4C[C@@]4(O)[C@@H](C2)N(CC2CC2)CC[C@]314: 2.7%
C#C[C@]1(OC(C)=O)CC[C@H]2[C@@H]3CCC4=CC(=NO)CC[C@@H]4[C@H]3CC[C@@]21CC (mixture of isomers): -17.8%
